Results gathered from unrelated publications.
Each numbered part is a random draw from the data of one study; scales do not carry over between parts.

Set 1
Target: Calcium/calmodulin-dependent protein kinase type II subunit alpha (CAMK2A, Homo sapiens, UniProt Q9UQM7)
Chain of UniProt Q9UQM7 (whole entry, looked up): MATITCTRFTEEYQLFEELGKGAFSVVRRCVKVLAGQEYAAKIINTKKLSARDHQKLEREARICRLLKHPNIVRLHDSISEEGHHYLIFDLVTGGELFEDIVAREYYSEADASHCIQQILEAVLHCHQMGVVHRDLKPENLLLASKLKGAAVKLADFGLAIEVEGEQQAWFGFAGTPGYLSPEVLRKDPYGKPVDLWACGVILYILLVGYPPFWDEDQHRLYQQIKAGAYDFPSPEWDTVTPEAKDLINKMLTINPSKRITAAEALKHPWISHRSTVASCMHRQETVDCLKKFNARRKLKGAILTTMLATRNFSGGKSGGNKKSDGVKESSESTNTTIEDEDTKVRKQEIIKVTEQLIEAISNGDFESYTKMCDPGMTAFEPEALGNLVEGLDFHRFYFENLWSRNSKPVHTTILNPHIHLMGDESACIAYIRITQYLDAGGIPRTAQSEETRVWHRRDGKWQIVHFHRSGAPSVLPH
Read-out: enzyme activity
Mode: inhibitor
Concentration: 10 µM
Quantity: inhibition
C[C@]12CCC(=O)C[C@H]1CC[C@@H]1[C@@H]2[C@@H](O)C[C@@]2(C)[C@H]1CC[C@]2(O)C(=O)CO: -7%
O=C(OCCOCCO)c1ccccc1Nc1cccc(C(F)(F)F)c1: -8%
C=C(C)[C@@H]1CCC2=CC(=O)C[C@@H](C)[C@]2(C)C1: -12%
CC(=O)N[C@@H](C)C(=O)O: 10%
CC(C)=CCc1cc(-c2coc3cc(O)ccc3c2=O)ccc1O: -34%
O=C(O)c1c[nH]c(=O)[nH]c1=O: 9%
CC(=O)NS(=O)(=O)c1ccc(NC(=O)c2ccccc2C(=O)O)cc1: 4%
NCCCCCC(O)(P(=O)(O)O)P(=O)(O)O: 1%
OC[C@@H](O)[C@@H](O[C@@H]1O[C@H](CO)[C@H](O)[C@H](O)[C@H]1O)[C@H](O)[C@@H](O)CO: -2%
Cc1oc(=O)oc1COC(=O)C1=C([C@H]2CCCO2)S[C@@H]2[C@@H]([C@@H](C)O)C(=O)N12: -12%
C[N+](C)(C)CC(O)CC(=O)O (racemic): -8%
C[C@H](O)CO: -16%
CC(=O)c1ccccc1N: -11%
CC(C)CCCO: 29%
COc1cc([C@H]2OC[C@H]3[C@@H]2CO[C@H]3c2ccc(OC)c(OC)c2)ccc1O: -70%

Set 2
Target: 5-hydroxytryptamine receptor 1D (HTR1D, Homo sapiens, UniProt P28221)
Chain of UniProt P28221 (whole entry, looked up): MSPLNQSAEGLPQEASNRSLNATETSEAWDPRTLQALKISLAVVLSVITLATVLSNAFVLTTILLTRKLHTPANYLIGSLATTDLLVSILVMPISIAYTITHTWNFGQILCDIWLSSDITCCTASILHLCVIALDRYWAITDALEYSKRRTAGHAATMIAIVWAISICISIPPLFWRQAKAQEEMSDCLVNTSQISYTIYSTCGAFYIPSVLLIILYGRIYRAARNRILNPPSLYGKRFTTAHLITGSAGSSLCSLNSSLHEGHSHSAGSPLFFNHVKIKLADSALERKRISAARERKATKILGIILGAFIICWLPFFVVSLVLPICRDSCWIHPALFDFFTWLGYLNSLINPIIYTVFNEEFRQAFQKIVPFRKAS
Read-out: ligand displacement
Method: radioligand
Concentration: 10 µM
Quantity: inhibition
C[C@H](c1ccc(F)cc1)N(Cc1cccc(C(=O)O)c1)C(=O)c1cnc2ccccc2c1: -1.68%
CNC(=O)c1ccc(Nc2ncc(C(F)(F)F)c(NCc3nccnc3N(C)S(C)(=O)=O)n2)cc1: -15.2%
Nc1cnc(N2CCc3cc(S(=O)(=O)Nc4c(F)cc(Cl)cc4F)cc(N4CCCC4=O)c32)nc1: 9.24%
CSc1cccnc1N1CCN(Cc2nc3ccccc3[nH]2)CC1: 30.2%
CN(C)C(=O)Cn1cc(-c2nc([C@@](C)(c3ccc(-c4cnc(N)nc4)cc3)C3CC3)no2)cn1: -5.95%
C[C@@H](NC(=O)Nc1cc2[nH]ncc2c(CO)n1)c1ccccc1: 1.59%
Cc1cc(Nc2nccc(C)n2)cc(-c2cnc([C@@]3(O)CC[C@H](C(=O)O)C(C)(C)C3)s2)c1: 2.65%
CC1=C(C#N)C(c2ccc3c(c2)c(NC(=O)c2ccccc2C)nn3C)C(C#N)=C(C)N1: 2.45%
CC(C)(C)OC(=O)N1CCCC1CNC1CCC(c2cc(F)ccc2F)(S(=O)(=O)c2ccc(Cl)cc2)CC1 (stereo not drawn): 61.4%
CCC(=O)N[C@H]1CC[C@@H](C(=O)N(C)c2ccc(-c3nc4ccccc4o3)cc2)C1: 6.85%
C[C@H](c1cccc(C#N)c1)n1cc(Cl)cc(C(N)=O)c1=N: 9.16%
Cn1cncc1[C@@](O)(COc1ccc(C#N)cc1-c1ccc(OC(F)(F)F)cc1)c1ccc(C#N)cc1: 6.65%
CC(C)(O)c1cncc(-c2nc3ccc(F)cc3n2C2CC2)c1: 0.75%
COc1cc(-c2cn(C3CCc4c(F)cccc4N(CC(F)(F)F)C3=O)nn2)ccc1-n1cnc(C)c1 (stereo not drawn): -13.5%
CCC(=NO)C(C)=Cc1ccc(F)c(C)c1: 4.54%
C[C@@]1(Cc2ccc(C#N)cc2)C(=O)N(c2cc(Cl)cc(Cl)c2)c2ncc(C(=O)NC3(c4nc(C5CCC5)no4)CC3)n21: 22.4%
CN1CCN(c2cnc3c(C4CCN(C(=O)c5ccc(OC(F)(F)F)cc5N)CC4)ncnc3c2)CC1: 16%
CNC(=O)Nc1ccc2c(c1)CC[C@]21OC(=O)N(CC(=O)N(Cc2ccc(F)cc2)[C@@H](C)C(F)(F)F)C1=O: 18%
Cc1nc(C2CCN(C(=O)c3ccc(OC(F)(F)F)cc3N)CC2)c2ncc(N3CCN(C)CC3)cc2n1: -2.17%

Set 3
Target: Serine/threonine-protein kinase BRSK2 (BRSK2, Homo sapiens, UniProt Q8IWQ3)
Read-out: enzyme activity
Mode: inhibitor
Concentration: 0.5 µM
Baseline: control
Quantity: remaining activity
Residues (Q8IWQ3 1-736): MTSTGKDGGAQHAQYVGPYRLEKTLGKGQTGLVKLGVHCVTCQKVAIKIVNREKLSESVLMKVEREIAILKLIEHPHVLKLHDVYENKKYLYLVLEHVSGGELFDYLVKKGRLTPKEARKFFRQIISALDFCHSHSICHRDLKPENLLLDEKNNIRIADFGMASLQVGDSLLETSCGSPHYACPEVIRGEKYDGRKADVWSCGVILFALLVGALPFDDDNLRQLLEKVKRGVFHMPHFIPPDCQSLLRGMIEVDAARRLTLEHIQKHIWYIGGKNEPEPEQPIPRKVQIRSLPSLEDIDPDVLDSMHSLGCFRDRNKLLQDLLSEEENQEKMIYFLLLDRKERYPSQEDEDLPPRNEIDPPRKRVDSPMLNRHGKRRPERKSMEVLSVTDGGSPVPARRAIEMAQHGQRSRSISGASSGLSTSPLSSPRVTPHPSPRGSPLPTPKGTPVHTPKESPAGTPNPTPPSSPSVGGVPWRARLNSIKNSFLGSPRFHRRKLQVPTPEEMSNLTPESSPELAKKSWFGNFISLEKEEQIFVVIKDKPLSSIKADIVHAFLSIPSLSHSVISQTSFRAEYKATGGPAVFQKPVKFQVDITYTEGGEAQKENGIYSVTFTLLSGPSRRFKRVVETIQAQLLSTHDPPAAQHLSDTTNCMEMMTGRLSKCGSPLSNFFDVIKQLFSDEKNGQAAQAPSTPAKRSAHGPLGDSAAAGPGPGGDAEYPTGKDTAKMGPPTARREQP
COc1ccc2c(c1)c(C1=C(c3c[nH]c4ccccc34)C(=O)NC1=O)cn2CCCN(C)C: 61.3%
N#Cc1cnc2cnc(NCc3cccnc3)cc2c1Nc1ccc(F)c(Cl)c1: 100%
Cc1ccc(S(=O)(=O)/C=C/C#N)cc1: 99.4%
O=C1NC(=O)c2c1c1c3ccccc3[nH]c1n1cncc21: 29.7%
O=C1Nc2ccccc2/C1=C\c1c(Cl)[nH]c2ccccc12: 96.2%
CN1CCN(c2ccc3nc(-c4c(N)c5c(F)cccc5[nH]c4=O)[nH]c3c2)CC1: 59.4%
O=Nc1c(-c2c(O)[nH]c3cc(Br)ccc23)[nH]c2ccccc12: 19.4%
O=c1cc(N2CCOCC2)oc2c(-c3ccccc3)cccc12: 96.2%
O=C1Nc2ccc(Br)cc2/C1=C/c1cc2c([nH]1)CCCC2: 93.8%
CCCCc1c(-c2ccc(OC)cc2)[nH]c2nccnc12: 90.8%
Oc1cccc(-c2nc(N3CCOCC3)c3oc4ncccc4c3n2)c1: 97.1%
O=C(c1cc2cc(O)ccc2[nH]1)c1cc2cc(O)ccc2[nH]1: 44.3%
c1ccc2c(-c3ccncc3)c[nH]c2c1: 98.6%
O=C1NC(=O)c2c1c1c3ccccc3[nH]c1c1[nH]c3cc(Br)ccc3c21: 35.6%
O=C1Cc2c([nH]c3ccc(Br)cc23)-c2ccccc2N1: 62.7%
CCCNC(=O)Nc1ccc(Oc2ncnc3cc(OC)c(OC)cc23)cc1Cl: 96.7%
Cc1cc(Nc2cc(N3CCN(C)CC3)nc(Sc3ccc(NC(=O)C4CC4)cc3)n2)[nH]n1: 89.6%
c1ccc(-c2n[nH]c3c2oc2ccccc23)cc1: 101%

Set 4
Target: Diamine acetyltransferase 1 (Homo sapiens, UniProt P21673)
Mode: inhibitor
Concentration: 10 µM
Baseline: control
Quantity: remaining activity
Residues (P21673 1-171): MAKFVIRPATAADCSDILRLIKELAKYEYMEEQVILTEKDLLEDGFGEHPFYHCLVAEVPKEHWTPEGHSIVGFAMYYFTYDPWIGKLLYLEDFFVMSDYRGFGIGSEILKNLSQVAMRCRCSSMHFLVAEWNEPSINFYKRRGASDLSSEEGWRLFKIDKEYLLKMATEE
COc1ccc([C@@H]2CC(=O)c3c(O)cc(O)cc3O2)cc1O: 100%
COc1cc(/C=C/C(=O)CC(=O)/C=C/c2ccc(O)cc2)ccc1O: 96.4%
O=C(/C=C/c1ccc(O)c(O)c1)c1ccc(O)cc1O: 77.7%
CC1(C)[C@@H]2CC[C@@]1(C)[C@H](O)C2: 101%
O=c1c(-c2ccc(O)cc2)coc2cc(O[C@@H]3O[C@H](CO)[C@@H](O)[C@H](O)[C@H]3O)cc(O)c12: 96.3%
Oc1ccc(/C=C/c2cc(O)cc(O)c2)cc1: 104%
C[C@@H]1O[C@@H](Oc2c(-c3ccc(O)c(O)c3)oc3cc(O)cc(O)c3c2=O)[C@H](O)[C@H](O)[C@H]1O: 86.9%
CC(=O)OC/C=C(/C)CCC=C(C)C: 90.9%
Oc1ccc2c(c1)OCO2: 98.3%
CC[C@H](/C=C/[C@@H](C)[C@H]1CC[C@H]2[C@@H]3CC=C4C[C@@H](O)CC[C@]4(C)[C@H]3CC[C@]12C)C(C)C: 89.4%
CC(=O)OC/C=C/c1ccccc1: 91%
CN(CC(=O)O)C(=N)N: 104%
CC(C)[C@@H]1CC[C@@H](C)CC1=O: 82.8%
O=C1c2cccc(O)c2C(=O)c2c(O)cc(CO)cc21: 97.6%
